Assay results pooled from the literature.
Parts stem from different laboratories: compare values within a part only. “And” joins repeats or separate records; there may be more than shown.
UniProt Q05513, sequence (whole entry, looked up): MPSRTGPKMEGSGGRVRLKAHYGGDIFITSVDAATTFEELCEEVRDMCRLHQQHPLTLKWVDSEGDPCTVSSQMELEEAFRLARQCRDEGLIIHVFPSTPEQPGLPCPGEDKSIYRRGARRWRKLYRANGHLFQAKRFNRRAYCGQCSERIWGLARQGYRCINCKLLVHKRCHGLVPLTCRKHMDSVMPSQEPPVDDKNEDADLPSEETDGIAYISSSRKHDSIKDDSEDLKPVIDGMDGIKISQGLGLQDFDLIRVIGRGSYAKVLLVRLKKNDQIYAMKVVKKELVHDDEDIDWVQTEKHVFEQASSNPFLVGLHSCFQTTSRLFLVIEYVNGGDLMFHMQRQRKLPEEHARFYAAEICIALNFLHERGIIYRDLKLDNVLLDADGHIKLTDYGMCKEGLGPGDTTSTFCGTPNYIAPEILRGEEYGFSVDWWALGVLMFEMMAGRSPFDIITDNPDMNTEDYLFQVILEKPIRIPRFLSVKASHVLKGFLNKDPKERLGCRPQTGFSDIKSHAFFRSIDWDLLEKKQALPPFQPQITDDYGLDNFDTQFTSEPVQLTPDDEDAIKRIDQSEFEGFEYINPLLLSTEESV
UniProt Q8IWQ3, sequence (whole entry, looked up): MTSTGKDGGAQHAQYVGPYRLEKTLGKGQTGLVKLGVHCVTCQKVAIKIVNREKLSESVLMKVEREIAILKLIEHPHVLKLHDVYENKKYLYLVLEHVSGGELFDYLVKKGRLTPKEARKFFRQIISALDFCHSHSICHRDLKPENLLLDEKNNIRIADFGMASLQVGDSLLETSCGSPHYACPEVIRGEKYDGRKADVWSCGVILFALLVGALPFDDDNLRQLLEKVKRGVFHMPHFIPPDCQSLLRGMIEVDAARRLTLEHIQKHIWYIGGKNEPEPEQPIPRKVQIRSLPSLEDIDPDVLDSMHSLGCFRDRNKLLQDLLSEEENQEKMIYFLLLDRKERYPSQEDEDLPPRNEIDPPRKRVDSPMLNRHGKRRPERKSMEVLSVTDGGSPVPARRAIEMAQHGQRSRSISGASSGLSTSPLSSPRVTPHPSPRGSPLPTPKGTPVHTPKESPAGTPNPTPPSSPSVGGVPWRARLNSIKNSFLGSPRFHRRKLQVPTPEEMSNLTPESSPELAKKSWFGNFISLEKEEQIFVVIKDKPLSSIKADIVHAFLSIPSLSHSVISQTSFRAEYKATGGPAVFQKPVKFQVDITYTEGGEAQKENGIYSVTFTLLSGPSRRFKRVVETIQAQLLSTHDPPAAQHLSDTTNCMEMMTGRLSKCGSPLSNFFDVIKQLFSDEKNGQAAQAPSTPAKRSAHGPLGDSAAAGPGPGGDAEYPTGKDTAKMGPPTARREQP
UniProt P42681, sequence (whole entry, looked up): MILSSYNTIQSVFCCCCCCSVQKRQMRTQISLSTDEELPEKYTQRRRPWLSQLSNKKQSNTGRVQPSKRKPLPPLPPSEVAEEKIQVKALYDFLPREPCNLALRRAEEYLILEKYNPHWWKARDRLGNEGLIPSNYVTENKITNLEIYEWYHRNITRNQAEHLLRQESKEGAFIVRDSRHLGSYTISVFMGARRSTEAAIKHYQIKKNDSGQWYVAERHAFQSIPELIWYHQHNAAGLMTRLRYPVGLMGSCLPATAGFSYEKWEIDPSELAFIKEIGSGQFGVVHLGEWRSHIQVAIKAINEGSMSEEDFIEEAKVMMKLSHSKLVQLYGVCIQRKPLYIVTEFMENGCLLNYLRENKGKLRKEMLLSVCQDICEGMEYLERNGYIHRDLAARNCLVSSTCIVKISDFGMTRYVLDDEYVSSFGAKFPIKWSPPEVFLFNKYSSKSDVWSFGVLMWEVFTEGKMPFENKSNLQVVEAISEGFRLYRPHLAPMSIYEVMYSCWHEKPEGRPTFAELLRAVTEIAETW
UniProt O60674, sequence (whole entry, looked up): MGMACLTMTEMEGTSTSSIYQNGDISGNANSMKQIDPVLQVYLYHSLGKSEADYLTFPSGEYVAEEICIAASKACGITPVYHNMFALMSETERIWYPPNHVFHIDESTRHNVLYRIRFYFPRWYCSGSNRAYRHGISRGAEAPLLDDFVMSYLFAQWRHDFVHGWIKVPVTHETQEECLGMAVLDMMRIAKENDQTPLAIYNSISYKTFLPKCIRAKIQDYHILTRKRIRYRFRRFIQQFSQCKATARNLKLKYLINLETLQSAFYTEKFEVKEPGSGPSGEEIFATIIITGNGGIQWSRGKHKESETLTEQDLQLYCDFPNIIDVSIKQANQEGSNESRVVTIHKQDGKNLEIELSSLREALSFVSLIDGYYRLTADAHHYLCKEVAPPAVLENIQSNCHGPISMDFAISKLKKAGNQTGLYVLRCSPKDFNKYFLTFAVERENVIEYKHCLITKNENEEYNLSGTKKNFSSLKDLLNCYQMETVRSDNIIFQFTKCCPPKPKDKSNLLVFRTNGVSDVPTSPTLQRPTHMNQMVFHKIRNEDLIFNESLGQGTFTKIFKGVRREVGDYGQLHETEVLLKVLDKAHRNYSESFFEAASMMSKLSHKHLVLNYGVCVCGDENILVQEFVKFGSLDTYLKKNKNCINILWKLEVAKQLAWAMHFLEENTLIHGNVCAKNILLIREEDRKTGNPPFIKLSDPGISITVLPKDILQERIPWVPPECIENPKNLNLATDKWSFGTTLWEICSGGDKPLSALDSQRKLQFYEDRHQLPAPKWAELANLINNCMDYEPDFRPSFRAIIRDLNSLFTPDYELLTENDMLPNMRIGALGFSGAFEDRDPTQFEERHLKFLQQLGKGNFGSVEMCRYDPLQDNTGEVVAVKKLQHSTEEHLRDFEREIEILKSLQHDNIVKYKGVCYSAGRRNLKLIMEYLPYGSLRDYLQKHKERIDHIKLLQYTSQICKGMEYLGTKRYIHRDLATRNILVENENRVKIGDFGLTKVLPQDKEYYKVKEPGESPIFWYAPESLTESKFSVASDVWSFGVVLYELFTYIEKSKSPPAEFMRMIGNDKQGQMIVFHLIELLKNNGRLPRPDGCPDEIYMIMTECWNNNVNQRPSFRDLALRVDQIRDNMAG
UniProt Q9P286, sequence (whole entry, looked up): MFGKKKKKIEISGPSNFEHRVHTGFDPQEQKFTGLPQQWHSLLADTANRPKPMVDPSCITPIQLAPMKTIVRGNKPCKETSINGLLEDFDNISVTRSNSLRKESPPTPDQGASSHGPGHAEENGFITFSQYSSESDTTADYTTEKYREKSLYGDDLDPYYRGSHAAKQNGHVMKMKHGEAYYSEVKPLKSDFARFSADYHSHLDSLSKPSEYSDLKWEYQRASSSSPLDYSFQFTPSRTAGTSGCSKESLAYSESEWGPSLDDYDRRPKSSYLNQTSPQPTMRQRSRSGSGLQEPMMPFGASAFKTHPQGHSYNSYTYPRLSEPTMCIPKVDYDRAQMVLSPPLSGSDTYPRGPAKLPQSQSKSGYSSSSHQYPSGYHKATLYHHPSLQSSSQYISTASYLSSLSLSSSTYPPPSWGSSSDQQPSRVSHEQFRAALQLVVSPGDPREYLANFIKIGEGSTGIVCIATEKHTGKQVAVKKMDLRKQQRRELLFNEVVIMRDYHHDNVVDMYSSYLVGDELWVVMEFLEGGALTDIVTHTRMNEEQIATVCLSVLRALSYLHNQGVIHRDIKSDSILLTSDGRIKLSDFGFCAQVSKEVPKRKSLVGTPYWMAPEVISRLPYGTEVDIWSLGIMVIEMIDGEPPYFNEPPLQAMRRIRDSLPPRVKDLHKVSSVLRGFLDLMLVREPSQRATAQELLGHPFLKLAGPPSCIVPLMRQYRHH

Series 1 — cell line: HEK293T ATF4-firefly luciferase reporter; observed: integrated stress response; measured: ATF4; baseline: DMSO; endpoint: reporter signal
Structure (SMILES): c1ccc2c(-c3nn4c(-c5ccncc5)nnc4s3)c[nH]c2c1
10 µM, without ISRIB: 196% and 192% and 180% and 173% and 240% and 155% and 205%
1 µM, without ISRIB: 127% and 125% and 111% and 121% and 120% and 129% and 122%
10 µM, added: ISRIB: 87% and 93.9% and 91.2% and 97.5% and 108% and 117% and 105%

Series 2 — cell line: HaCaT; tested at: 100 µM; time: 18 h; endpoint: viability
CO/N=C(\C(=O)N[C@@H]1C(=O)N2C(C(=O)O)=C(COC(C)=O)CS[C@H]12)c1csc(N)n1: 107%
CC[C@H](C)[C@H](N)C1=N[C@H](C(=O)N[C@@H](CC(C)C)C(=O)N[C@H](CCC(=O)O)C(=O)N[C@H](C(=O)N[C@H]2CCCCNC(=O)[C@H](CC(N)=O)NC(=O)[C@@H](CC(=O)O)NC(=O)[C@H](Cc3cnc[nH]3)NC(=O)[C@@H](Cc3ccccc3)NC(=O)[C@H]([C@@H](C)CC)NC(=O)[C@@H](CCCN)NC2=O)[C@@H](C)CC)CS1: 107%
C[C@H]1COc2c(C3(N)CC3)c(F)cc3c(=O)c(C(=O)O)cn1c23: 112%
CC1(C)S[C@@H]2[C@H](NC(=O)[C@H](C(=O)O)c3ccsc3)C(=O)N2[C@H]1C(=O)O: 98.8%
Nc1c(Br)cc(Br)cc1CN[C@H]1CC[C@H](O)CC1: 106%
CCOc1cc([C@@H](CS(C)(=O)=O)N2C(=O)c3cccc(NC(C)=O)c3C2=O)ccc1OC: 96.3%

Series 3 — cell line: human islets; technique: qPCR; tested at: concentration not given; notes: unit not given; baseline: low glucose control; endpoint: mRNA level
SMILES: O=C(COc1ccccc1P(=O)(O)O)NCC(F)(F)c1cccc(F)c1
measured: PIN1; added: glucolipotoxic conditions: 1.26 and 1.05 and 0.89
measured: RELA; added: high glucose (20 mM): 0.896 and 1.12 and 1.15 and 0.934
measured: ALDH1A3; added: high glucose (20 mM): 2.13 and 2.75 and 4.33 and 3.49

Series 4 — observed: enzyme activity; action: inhibitor; tested at: 0.5 µM; baseline: control; endpoint: remaining activity
Structure (SMILES): Cn1cc(/C=C2\C(=O)Nc3ccc(S(N)(=O)=O)cc32)c2ccccc21
CAMK1 (Homo sapiens, UniProt Q14012): 75.7%
PIM1 (Homo sapiens, UniProt P11309): 96.5%
MELK (Homo sapiens, UniProt Q14680): 63%
PAK1 (Homo sapiens, UniProt Q13153): 90.8%
MAP3K20 (Homo sapiens, UniProt Q9NYL2): 95%
FES (Homo sapiens, UniProt P07332): 57.4%
PRKCZ (Homo sapiens, UniProt Q05513): 105%
JAK2 (Homo sapiens, UniProt O60674): 58.4%
SIK2 (Homo sapiens, UniProt Q9H0K1): 81.4%
PAK5 (Homo sapiens, UniProt Q9P286): 75.3%
CSNK1D (Homo sapiens, UniProt P48730): 102%
TYRO3 (Homo sapiens, UniProt Q06418): 90.5%
Cyclin-dependent kinase 2, with cyclin E (CDK2, Homo sapiens, UniProt P24941): 77.9%
JAK1 (Homo sapiens, UniProt P23458): 83.9%
IGF1R (Homo sapiens, UniProt P08069): 87.9%
RPS6KB2 (Homo sapiens, UniProt Q9UBS0): 94.6%
CAMKK1 (Homo sapiens, UniProt Q8N5S9): 44.9%
BRSK2 (Homo sapiens, UniProt Q8IWQ3): 65.5%
DYRK1A (Homo sapiens, UniProt Q13627): 92.2%
FLT1 (Homo sapiens, UniProt P17948): 70.1%
YES1 (Homo sapiens, UniProt P07947): 24.2%
CLK1 (Homo sapiens, UniProt P49759): 88.3%
ERBB2 (Homo sapiens, UniProt P04626): 120%
PRKCQ (Homo sapiens, UniProt Q04759): 103%
MARK1 (Homo sapiens, UniProt Q9P0L2): 40.4%

Series 5 — species: human; matrix: microsomes or S9; tested at: 2 µM; time: 0.5 h; endpoint: remaining compound
COc1ccccc1CCN[C@H]1CS(=O)(=O)C[C@@H]1S(=O)(=O)c1ccc(Cl)cc1: 1.34%
Cc1nc(CCN2CC3(CCNCC3)CCC2=O)sc1Cl: 71.1%
COC[C@]1(C)Oc2ccc(N)cc2[C@H](N(Cc2ncc[nH]2)c2ccc(Cl)cc2)[C@H]1O: 17.9%
COC[C@@H]1[C@@H](NC(=O)c2c(OC)cc(=O)n3c2CCNCC3)[C@@H]2CCO[C@H]12: > 99%
CCOC(=O)N1CCN(Cc2nc(N)nc(Nc3ccc(F)cc3)n2)CC1: > 100%

Series 6 — technique: competition with immobilised ligand; tested at: 1 µM; endpoint: remaining binding
SMILES: CNC(=O)Nc1ccc2c(c1)CC[C@@]21OC(=O)N(CC(=O)N(Cc2ccc(F)cc2)[C@@H](C)C(F)(F)F)C1=O
TXK (Homo sapiens, UniProt P42681); binding: 78%
PIK3CA (Homo sapiens, UniProt P42336, E542K); cell-free assay: 76%
EGFR (Homo sapiens, UniProt P00533, T790M); cell-free assay: 73%
FLT3 (Homo sapiens, UniProt P36888, D835V/ITD); cell-free assay: 87%
NEK3 (Homo sapiens, UniProt P51956); cell-free assay: 58%
TAOK3 (Homo sapiens, UniProt Q9H2K8); cell-free assay: 74%

Further values, each from its own experiment
CCOC(=O)[C@@H]1CSCC(=O)N[C@H](CC)C(=O)N(C)[C@@H](C)C(=O)N[C@@H](CC(C)C)C(=O)N2CCC[C@@H]2C(=O)N(CC(C)C)CC(=O)N[C@@H](CC(C)C)C(=O)N(C)[C@H](C)C(=O)N[C@@H](CC(C)C)C(=O)N1C — logD (hydrocarbon/water): 1.44
COc1ccc(-c2c(Nc3ccccn3)[nH]c3c(C4=CCCCC4)c(-c4ccccc4)nn3c2=O)cc1 — SDMA H-score (immunohistochemistry; human, tumour biopsy; oral, 50 mg once daily, cycle 1 day 28; direction not given): 85 and 125 and 145

Excerpt of the above (series 6):
PIK3CA (Homo sapiens, UniProt P42336, E542K); cell-free assay: 76%
EGFR (Homo sapiens, UniProt P00533, T790M); cell-free assay: 73%
FLT3 (Homo sapiens, UniProt P36888, D835V/ITD); cell-free assay: 87%
NEK3 (Homo sapiens, UniProt P51956); cell-free assay: 58%
TAOK3 (Homo sapiens, UniProt Q9H2K8); cell-free assay: 74%
